Measurements pooled from the literature.
Compare with care: the assays were run in different laboratories. ± gives the spread as reported. Converted amounts (≈) assume the structure as drawn.

Compound	organism	test	test system	conditions	quantity	value
COc1ccc(CNC23CC4C5CC6CC4C(C2)C(C6)C5C3)c(O)c1	influenza A virus	viral replication	A/WSN/33 M2 N31S	–	EC50	290 ± 110 nM
CN[C@@H]1[C@H](O)[C@H](NC)[C@H]2O[C@]3(O)[C@H](O[C@@H]2[C@H]1O)O[C@H](C)C[C@H]3NC(=O)Cc1ccccn1	Mycobacterium tuberculosis	microbial growth, broth dilution	H37RV	–	MIC	1.6 µg/mL (≈ 3.54 µM)
CC(C)(C)C1CCc2c(sc3nc(SCCN4CCCCC4)nc(N)c23)C1 (stereo not shown)	Mycobacterium tuberculosis	–	K204	100 µM, compound toxic alone, together with: kanamycin	kanamycin MIC	toxic
CCC1(CC)C2CC3CC(C2)CC1(N)C3	Influenza A virus	viral replication	A/X-31 (H3N2)	–	EC50	> 100000 nM
CN[C@@H]1[C@H](O)[C@H](NC)[C@H]2O[C@]3(O)[C@H](O[C@@H]2[C@H]1O)O[C@H](C)C[C@H]3NC(=O)Cc1cc(Cl)ccn1	Mycobacterium tuberculosis	microbial growth, broth dilution	H37RV	–	MIC	1.6 µg/mL (≈ 3.29 µM)
CC1CCc2c(sc3nc(SCCCN4CCCCC4)nc(N)c23)C1 (stereo not shown)	Mycobacterium tuberculosis	–	K204	100 µM, compound toxic alone, together with: kanamycin	kanamycin MIC	toxic
CN[C@@H]1[C@H](O)[C@H](NC)[C@H]2O[C@]3(O)[C@H](O[C@@H]2[C@H]1O)O[C@H](C)C[C@H]3NC(=O)Cc1ccc(F)cn1	Mycobacterium tuberculosis	microbial growth, broth dilution	H37RV	–	MIC	1.6 µg/mL (≈ 3.4 µM)
CCC1(CC)C2CC3CC(C2)CC1(N(C)C)C3	Influenza A virus	viral replication	–	–	EC50	> 100000 nM
COc1ccc(CNC23CC4CC(CC(C4)C2)C3)c(O)c1	influenza A virus	viral replication	A/WSN/33 M2 N31S	–	EC50	1130 ± 30 nM
Nc1nc(SCCCN2CCCCC2)nc2sc3c(c12)CCCCC3	Mycobacterium tuberculosis	–	K204	100 µM, compound toxic alone, together with: kanamycin	kanamycin MIC	toxic
CN[C@@H]1[C@H](O)[C@H](NC)[C@H]2O[C@]3(O)[C@H](O[C@@H]2[C@H]1O)O[C@H](C)C[C@H]3NC(=O)Cc1ccc(Cl)cn1	Mycobacterium tuberculosis	microbial growth, broth dilution	H37RV	–	MIC	1.6 µg/mL (≈ 3.29 µM)
CN1CC23C4C=CC5C4C4C2C=CC4C53C1	Influenza A virus	viral replication	A/X-31 (H3N2)	–	EC50	> 100000 nM
Nc1nc(SCCN2CCCC2)nc2sc3c(c12)CCC(c1ccccc1)C3 (stereo not shown)	Mycobacterium tuberculosis	–	K204	100 µM, compound toxic alone, together with: kanamycin	kanamycin MIC	toxic

Excerpt of the above:
Compound	organism	test	test system	conditions	quantity	value
COc1ccc(CNC23CC4CC(CC(C4)C2)C3)c(O)c1	influenza A virus	viral replication	A/WSN/33 M2 N31S	–	EC50	1130 ± 30 nM
CCC1(CC)C2CC3CC(C2)CC1(N)C3	Influenza A virus	viral replication	A/X-31 (H3N2)	–	EC50	> 100000 nM
